# Measurements pooled from the literature.
# “And” joins repeats or separate records; there may be more than shown.
# Target: Ephrin type-A receptor 8 (EPHA8, Homo sapiens, UniProt P29322)
Structure (SMILES),test,conditions,how to read,quantity,value
C=CC(=O)N1CCCC(n2c(=O)c3ncccc3n(Cc3ccc(Oc4ccccc4)cc3)c2=O)C1 (stereo not drawn),"cell-free assay, competition with immobilised ligand",1 µM,,remaining binding,92%
COCC12C(=O)NC3C4(C(OC)CC1O)C1CC5(O)C(OC)C(O)C(OC(C)=O)(C1C5OC(=O)c1ccccc1)C3(O)C(OC)C24 (stereo not drawn),"kinase activity, inhibitor, ProQinase kinase profiling",25 µM,relative to: control,remaining activity,111% and 115%
Cc1cccc(O[C@H]2CCC[C@@H](C(C)CNCc3ccncc3)C2)c1 (relative stereo),cell-free assay,1 µM,,inhibition,-2%
C=CC(=O)N1Cc2nc(-c3cc(-c4cc(Cl)cnc4Cl)c(F)cc3F)n(-c3ccncn3)c2C1,cell-free assay,1 µM,,inhibition,15.9%
O=C=[N][Ru-4]123([n]4c5ccc(O)cc5c5c6c(c7cc(F)c[n+]1c7c54)C(=O)NC6=O)[S+]1CC[S+]2CC[S+]3CC1 (stereo not drawn),enzyme activity,"100 nM, human enzyme, together with: 10 µM ATP",relative to: untreated,remaining activity,134%
NC(=O)C[C@H]1CCc2sc3ncnc(O[C@H]4CC[C@H](N5CCOCC5)CC4)c3c21,"enzyme activity, inhibitor",10 µM,,inhibition,11%
C=CC(=O)Nc1cccc(-c2cnc3[nH]cc(C(=O)NC(C)(C)C)c3n2)c1,"enzyme activity, inhibitor",0.1 µM,,inhibition,5%
O=C(Cc1ccc(OCc2ccccc2)cc1)NC1(C(=O)O)CCN(C(=O)c2ccc(-c3cccc(Cl)c3)cc2)CC1,"enzyme activity, inhibitor",10 µM,,activity vs control,101%
Cc1cnc2nc1Nc1cccc(c1)COC/C=C/COCc1cc(ccc1OCCN1CCOCC1)N2,binding,0.1 µM,,remaining binding,97%
CCn1cc(C(=O)O)c(=O)c2c(N)c(F)c(NC3CCCCC3)cc21,kinase activity,"0.1 µM, together with: ATP at Km",,inhibition,2.9%
CCN1CCN(Cc2ccc(NC(=O)c3ccc(C)c(NC(=O)c4cncc(-c5cccs5)c4)c3)cc2C(F)(F)F)CC1,"binding, competition with immobilised ligand",1 µM,,remaining binding,0%
CNC(=O)C[C@H](Cc1ccc(C#N)cc1)NC(=O)c1cc(-c2ccc(CN[C@H](C)c3ccc(C)cc3)o2)ccc1Cl,"enzyme activity, inhibitor",1 µM,,activity vs control,106%
Cc1nc2c(F)cc(-c3nc(Nc4ccc(CNC(=O)CCCCCCC(=O)NO)cc4)ncc3F)cc2n1C(C)C,"enzyme activity, inhibitor",1 µM,,inhibition,52%
CC(C)=CC1OC(C)(C)C2C=C3C(=O)C(Cl)=CC(O)C3C3C(O)C4OC4C(=O)C132 (stereo not drawn),"cell-free assay, competition with immobilised ligand",10 µM,,remaining binding,88%
Nc1ncc(-c2cc(-c3cnn(CC(F)(F)F)c3)ncc2F)nc1C(=O)NC1CNCC(F)C1 (stereo not drawn),enzyme activity,1 µM,relative to: DMSO control,remaining activity,99%

# Some of these lines once more:
Structure (SMILES),test,conditions,how to read,quantity,value
NC(=O)C[C@H]1CCc2sc3ncnc(O[C@H]4CC[C@H](N5CCOCC5)CC4)c3c21,"enzyme activity, inhibitor",10 µM,,inhibition,11%
